Experimental data from different studies.
Each numbered part is a random draw from the data of one study; scales do not carry over between parts. Values joined by “and” are separate records of one study, mostly repeats; a detail may differ.

Series 1
Target: Replicase polyprotein 1ab, main protease (rep, Severe acute respiratory syndrome coronavirus 2, UniProt P0DTD1)
Observed: enzyme activity
Mode: inhibitor
Concentration: 20 µM
Setting: hit confirmation
| Compound | inhibition |
| --- | --- |
| O=C(O)/C(S)=C/c1ccc(I)cc1 | 55.1% |
| c1ccc2sc(SNC3CCCCC3)nc2c1 | 69.6% |
| CCC[C@H](NC(=O)[C@@H]1[C@H]2CCC[C@H]2CN1C(=O)[C@@H](NC(=O)[C@@H](NC(=O)c1cnccn1)C1CCCCC1)C(C)(C)C)C(=O)C(=O)NC1CC1 | 54.5% and 27% and 35.6% |
| CC(C)c1cc(CNc2nc(Nc3cc(C4CC4)[nH]n3)cc(N3CCN(C)CC3)n2)on1 | 99.2% |

Series 2
Target: Replicase polyprotein 1ab, polymerase (rep, Severe acute respiratory syndrome coronavirus 2, UniProt P0DTD1)
Observed: enzyme activity
Mode: inhibitor
Concentration: 20 µM
| SMILES | inhibition [%] |
| --- | --- |
| Nc1ccccc1C(=O)O | 1.33 |
| C=C[C@@](C)(/C=C/c1ccc(O)cc1)CCC=C(C)C | -0.48 |
| CC(=O)Nc1ncc([N+](=O)[O-])s1 | -6.05 |
| Cc1nc(NC(=O)N2CCC[C@H]2C(N)=O)sc1-c1ccnc(C(C)(C)C(F)(F)F)c1 | 1.02 |
| OCCN1CCN(CC/C=C2/c3ccccc3Sc3ccc(C(F)(F)F)cc32)CC1 | -7.37 |
| CCN(CCCOc1ccc2c(Nc3cc(CC(=O)Nc4cccc(F)c4)[nH]n3)ncnc2c1)CCOP(=O)(O)O | 8.84 |
| C[C@@H]1CC[C@H]2[C@@H](C)C(=O)O[C@@H]3O[C@@]4(C)CC[C@@H]1[C@]32OO4 | 1.78 |
| NC(=O)Cc1cccc(C(=O)c2ccccc2)c1N | -0.41 |
| C/C=C/c1cc(OC)c(OC)cc1OC | -0.93 |
| c1ccc(C(O[C@@H]2CCCN(CCc3ccc4c(c3)OCO4)C2)c2ccccc2)cc1 | -6.67 |
| c1ccc(C[C@H](c2ccccc2)N2CCCCC2)cc1 (racemic) | -22.9 |
| NCCNc1ccc(NCCN)c2c1C(=O)c1ccncc1C2=O | 95.6 |
| CN(C)C/C=C/C(=O)Nc1ccc(C(=O)Nc2cccc(Nc3ncc(Cl)c(-c4c[nH]c5ccccc45)n3)c2)cc1 | 11.9 |
| O=S(=O)(NCC1CC1)c1ccc(Nc2nccc(N3CCCc4cc(O)ccc43)n2)cc1 | 2.59 |
| C#C[C@]1(O)C=C[C@H]2[C@@H]3CCC4=CC(=O)CC[C@@H]4[C@H]3CC[C@@]21CC | -6.63 |
| CC(Cc1ccccc1)(NC(=O)CN)c1ccccc1 (centres unmarked) | -9.22 |
| COC(=O)Nc1ccc2[nH]cc(CCNC(C)=O)c2c1 | -9.52 |
| CCCn1c(=O)[nH]c(=O)c2[nH]cnc21 | 37.9 |
| Nc1nc(=O)c2sc(=O)n([C@@H]3O[C@H](CO)[C@@H](O)[C@H]3O)c2[nH]1 | -0.17 |
| CC(C)=CCC/C(C)=C/CNCCNC1C2CC3CC(C2)CC1C3 (centres unmarked) | -2.68 |
| O=C(O)CCCCCCCCC(=O)O | 1.81 |
| O=C(Nc1ccc(Cl)cc1)Nc1ccc(Cl)c(Cl)c1 | 0.43 |
| Cc1cc(-c2ccccc2)nnc1NCCN1CCOCC1 | 26.6 |
| C#Cc1c[nH]c(=O)[nH]c1=O | 0.87 |
| CCN(CC)c1ccc(C(=C2C=CC(=[N+](CC)CC)C=C2)c2ccccc2)cc1 | -2.67 |

Series 3
Cell line: HEK-293T/ACE2
Concentration: 10 µM
Time: 16 h
Reference: vehicle
| Structure (SMILES) | viability |
| --- | --- |
| COC(=O)[C@H]1[C@H]2C[C@@H]3c4[nH]c5cc(OC)ccc5c4CCN3C[C@H]2C[C@@H](OC(=O)c2cc(OC)c(OC)c(OC)c2)[C@@H]1OC | 100% |
| CCC(=O)NCC[C@@H]1CCc2ccc3c(c21)CCO3 | 97.9% |
| CC(C)(C)C(=O)OCOP(=O)(COCCn1cnc2c(N)ncnc21)OCOC(=O)C(C)(C)C | 74.4% |
| CN1C(C(=O)Nc2ccccn2)=C(O)c2ccccc2S1(=O)=O | 100% |
| NC[C@H]1O[C@H](O[C@H]2[C@H](O)[C@@H](O[C@H]3O[C@H](CO)[C@@H](O)[C@H](N)[C@H]3O)[C@H](N)C[C@@H]2N)[C@H](O)[C@@H](O)[C@@H]1O | 99.1% |

Series 4
Target: RING finger protein unkempt homolog, zinc fingers 1-6, GST-SBP tag (UNK, Homo sapiens, UniProt Q9C0B0, residues 30-357)
Sequence of UniProt Q9C0B0 (30-357, looked up): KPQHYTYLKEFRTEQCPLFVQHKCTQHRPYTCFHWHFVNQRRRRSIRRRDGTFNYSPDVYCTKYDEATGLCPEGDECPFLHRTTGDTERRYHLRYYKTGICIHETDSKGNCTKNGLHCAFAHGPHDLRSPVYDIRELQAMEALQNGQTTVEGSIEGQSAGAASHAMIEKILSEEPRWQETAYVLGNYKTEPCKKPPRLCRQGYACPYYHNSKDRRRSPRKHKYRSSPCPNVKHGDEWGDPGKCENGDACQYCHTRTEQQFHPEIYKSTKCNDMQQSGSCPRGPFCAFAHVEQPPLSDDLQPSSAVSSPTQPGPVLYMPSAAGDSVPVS
Method: RNA Bind-n-Seq
Molecule type: RNA
Matrix: in vitro
Concentration: not given
Setting: RNA with constant flanks, human and mouse sites, ends assumed
Reference: input RNA pool
Direction: higher = stronger binding
| Oligonucleotide | bound/input enrichment |
| --- | --- |
| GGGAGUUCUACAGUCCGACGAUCAGUUAAUGGAGAAAACACACCUUCAUCCCCGUCUCAGGUUGCUGCCAGACCCAAAAAUGCUCCAGCUCCAAAGCCAGUCACAUCUGCGCCCACCAGUGACACGGUUAAUGGAGAAUCAUCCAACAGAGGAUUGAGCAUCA | 0.217 ratio |
| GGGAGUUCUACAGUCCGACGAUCCAUUUUAUUCCAAGAUGUUUUAUCUUUUAUGUUAAGAGAUCAAAGCUUAUAAUUUUCUUUUUUAAUUUUUGAAGGAGGGAUCAACUCCAGUUUCCAAUGUCUAUGUGUCUAUGUGUGUAUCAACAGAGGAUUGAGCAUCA | 2.54 ratio |
| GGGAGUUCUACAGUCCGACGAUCGGGAGCCCCAUUGCCUCUGUCUCCUUCGGUGCCUGCAGAGACUUUGUCUUCCGGCAUAAGGAUUCCCGUGGGAAAAGCCCCUCCAGGAGGGUGGCGGUGGUCAGGCUGCCGCUGGCCCACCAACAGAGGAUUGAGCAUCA | 0.101 ratio |
| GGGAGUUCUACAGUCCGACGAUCAUGAGAAACAGUAUCUUAGCCCAAGUUCUGGAUCAGUCAGCCCGGGCCAGAUUAAGUAACUUAGCACUUGUAAAGCCUGAAAAAACUAAAGCAGUGGAGAACUACCUUAUACAGAUGGCGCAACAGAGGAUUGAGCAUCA | 0.28 ratio |
| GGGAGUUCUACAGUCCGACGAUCAUCCUUCAGUGUUUUUUGUCCAUUAUCUGGGUCUUUUGGGCUUUAUCUAUUUUGGCUUCGAUUAGGAAACCCACGAAUCAGGUAGAAACCCCCGGAUGGCUGCCAUAGUUCCAGUUUUAACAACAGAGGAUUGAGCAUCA | 0.592 ratio |
| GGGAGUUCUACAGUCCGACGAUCUUUUUUAAUUUUUUGUCAUCGCACUAUGGAACACAAUGCAAUUCACUUAAUUUAUAAGAAGAUAGUAAGAUUUAGAUUUUGAAAAUGGUUGUGAUGAGCCGUGAAGUUCAACCUUUCUCCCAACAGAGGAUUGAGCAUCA | 14.3 ratio |
| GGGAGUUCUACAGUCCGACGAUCUCAGCUUAGGCCUUCCAAGGAACAAUGAAAACUAUGUGCUGGCCAUUUGUUUAUCAGAUUCUUAGUAUAUACUCCUCCCUUCCCACCACCUUCCUGUCAAUUCCAGUACGAGACAGAAGGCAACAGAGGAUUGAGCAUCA | 1.06 ratio |
| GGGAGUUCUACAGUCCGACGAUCUCCUCGCUGGAGUACAGCAUCCGAGUCUACUGUCUGGAUGACACCCAGGAUGCCCUGAAGGAAAUUUUACAUCUUGAGAGACAGAUGGGAGGACAGCUCCUAGAAGAACCUAAGGCUCUUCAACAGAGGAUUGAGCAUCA | 0.117 ratio |

Series 5
Target: Ras GTPase-activating protein-binding protein 1, full length (G3BP1, Homo sapiens, UniProt Q13283)
Sequence of UniProt Q13283 (whole entry, looked up): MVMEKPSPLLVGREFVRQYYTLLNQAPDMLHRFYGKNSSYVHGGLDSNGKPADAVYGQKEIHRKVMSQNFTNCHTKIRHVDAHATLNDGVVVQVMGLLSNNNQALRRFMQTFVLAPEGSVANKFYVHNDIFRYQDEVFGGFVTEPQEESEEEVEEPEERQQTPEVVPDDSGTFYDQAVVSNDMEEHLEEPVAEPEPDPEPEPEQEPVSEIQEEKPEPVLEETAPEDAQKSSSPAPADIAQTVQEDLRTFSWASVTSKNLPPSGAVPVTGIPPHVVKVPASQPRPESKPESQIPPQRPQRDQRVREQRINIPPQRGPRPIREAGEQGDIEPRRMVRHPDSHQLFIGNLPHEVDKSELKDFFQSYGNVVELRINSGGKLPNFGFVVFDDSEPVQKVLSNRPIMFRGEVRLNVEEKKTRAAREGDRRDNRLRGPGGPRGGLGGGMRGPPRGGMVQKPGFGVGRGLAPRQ
Method: RNA Bind-n-Seq
Molecule type: RNA
Matrix: in vitro
Concentration: 200 nM
Setting: whole 134-nt RNA, ends assumed
Added: 150 mM LiCl
Reference: input library
Direction: higher = stronger binding
Library: 7-deaza-guanosine replaces G
| Oligonucleotide | log2 enrichment |
| --- | --- |
| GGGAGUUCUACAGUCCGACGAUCCCUCAAGUCCUGUGCUACACAUCGUAUGUACCGAAUCGGGAGGAGGGGAGGGAAAGUAUUAUGUUACGCCGUUCGGAUCUGCACUUCCAGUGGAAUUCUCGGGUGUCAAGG | 0.731 |
| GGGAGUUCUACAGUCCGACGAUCUCCUGUGCUACACAUCGUAUGUACCGAAUCGGGGAAAAAAAGGGGUUUUUGGGGUGGGGAAAGUAUUAUGUUACGCCGUUCGGAUCUGCAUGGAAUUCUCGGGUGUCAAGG | 0.221 |
| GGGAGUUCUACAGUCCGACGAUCUGGGAGGUGGAUUUUGUUUAUUUUUUUAGCUCAUUUCCAGGGGUGGGAAUUUUUUUUUAAUAUGUGUCAUGAAUAAAGUUGUUUUUGUAAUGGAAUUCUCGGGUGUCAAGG | -0.00587 |
| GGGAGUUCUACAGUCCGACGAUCUGGCCCUGGUGGCAUGCGGGGAGGAAGAGGUGGCCUCAUGGAUCGUGGUGGUCCCGGUGGAAUGUUCAGAGGUGGCCGCGGUGGAGACAGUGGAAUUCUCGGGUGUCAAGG | 0.0556 |
| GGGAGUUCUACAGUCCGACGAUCCCUGUGCUACACAUCGUAUGUACCGAAUCGGCCCCCCCGGGCCCCCCCGGGCCCCCCCGGGAAAGUAUUAUGUUACGCCGUUCGGAUCUGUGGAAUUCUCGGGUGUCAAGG | -0.577 |
| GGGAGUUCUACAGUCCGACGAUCUCAAGUCCUGUGCUACACAUCGUAUGUACCGAAUCGGGGCCGGGGCCGGGCCGGAAAGUAUUAUGUUACGCCGUUCGGAUCUGCACUUCCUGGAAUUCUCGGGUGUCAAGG | 0.359 |
| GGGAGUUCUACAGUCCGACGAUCUCAAGUCCUGUGCUACACAUCGUAUGUACCGAAUCGGGUGGGAAAAAGGGAGGGAAAGUAUUAUGUUACGCCGUUCGGAUCUGCACUUCCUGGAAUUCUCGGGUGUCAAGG | -0.16 |
| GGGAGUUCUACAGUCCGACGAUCCCUGUGCUACACAUCGUAUGUACCGAAUCGGGGUUUUUGGGGUUUUUUUGGGGUUUGGGGAAAGUAUUAUGUUACGCCGUUCGGAUCUGCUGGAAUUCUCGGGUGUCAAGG | 0.218 |

For quick reference, copied from above (series 2):
| SMILES | inhibition [%] |
| --- | --- |
| C/C=C/c1cc(OC)c(OC)cc1OC | -0.93 |
| CC(Cc1ccccc1)(NC(=O)CN)c1ccccc1 (centres unmarked) | -9.22 |
| CC(C)=CCC/C(C)=C/CNCCNC1C2CC3CC(C2)CC1C3 (centres unmarked) | -2.68 |
| CCN(CCCOc1ccc2c(Nc3cc(CC(=O)Nc4cccc(F)c4)[nH]n3)ncnc2c1)CCOP(=O)(O)O | 8.84 |
| CC(=O)Nc1ncc([N+](=O)[O-])s1 | -6.05 |
| C=C[C@@](C)(/C=C/c1ccc(O)cc1)CCC=C(C)C | -0.48 |
| C[C@@H]1CC[C@H]2[C@@H](C)C(=O)O[C@@H]3O[C@@]4(C)CC[C@@H]1[C@]32OO4 | 1.78 |
